Measurements pooled from the literature.
Lines come from different studies, so protocols differ.
Organism: Cryptococcus neoformans

SMILES | assay | test system | setting | how to read | MIC
CC(C)c1ccc(Cn2ccc([C@H](C)[C@](O)(Cn3cnnn3)c3ccc(F)cc3F)n2)cc1 | growth, broth microdilution | H99 | 72 h, 30 °C, ≥50% inhibition | – | < 0.008 µg/mL
S=c1[nH]c2cccc(Cl)c2n1CCOc1ccccc1 | CLSI broth microdilution | H99S | 72 h | – | 4 µg/mL
CCCCCC1CC2CCCC3CC(C)N=C(N1)N32 (stereo not drawn) | fungal growth | ATCC 90113 | – | – | 3.96 µM
CSc1ccc2c(c1)N(CCC1CCCCN1C)c1ccccc1[S+]2[O-] (stereo not drawn) | – | – | highest of replicates | – | ≥ 128 µg/mL
O=C(NCCNCCO)c1cn(Cc2cccc(Br)c2)c2cc(Cl)c(OCc3ccc(C(F)(F)F)cc3)cc2c1=O | – | ATCC 208821 | – | ≥80% growth inhibition | < 0.25 µg/mL
COC(=O)C1=C(C)N(Cc2ccc(Br)cc2)C(=S)CC1c1ccc(OC)cc1 (stereo not drawn) | CLSI broth microdilution | H99S | 72 h | – | 32 µg/mL
CCCCCCn1ccc([C@H](C)[C@](O)(Cn2cnnn2)c2ccc(F)cc2F)n1 | growth, broth microdilution | H99 | 72 h, 30 °C, ≥50% inhibition | – | 0.5 µg/mL
CCCCCCCCCCCCCNCC(=O)N(CC(=O)N(CCCCN)CC(=O)N(CCN)CC(=O)N(CC(N)=O)c1cccc2ccccc12)c1cccc2ccccc12 | broth microdilution | – | 72 h, 35 °C | – | 6.25 µg/mL
C[C@@H](c1ccn(Cc2ccc(Cl)c(Cl)c2)n1)[C@](O)(Cn1cnnn1)c1ccc(F)cc1F | growth, broth microdilution | H99 | 72 h, 30 °C, ≥50% inhibition | – | < 0.008 µg/mL
CC(=O)c1ccc2c(c1)N(CCCN(C)C)c1ccccc1S2 | – | – | highest of replicates | – | 64 µg/mL
CCCCCCCCCCCCCC(=O)NCC(=O)N(CC(=O)N(CCCCN)CC(=O)N(CCN)CC(=O)N(CC(N)=O)C1CCCCC1)C1CCCCC1 | broth microdilution | – | 72 h, 35 °C | – | 6.25 µg/mL
C[C@@H](c1ccn(Cc2ccc(F)c(F)c2)n1)[C@](O)(Cn1cnnn1)c1ccc(F)cc1F | growth, broth microdilution | H99 | 72 h, 30 °C, ≥50% inhibition | – | 0.0625 µg/mL
CCCCCCCCCCCCCNCC(=O)N(CC(=O)N(CCCCN)CC(=O)N(CCN)CC(=O)N(CC(N)=O)c1ccc2c(c1)CCC2)c1ccc2c(c1)CCC2 | broth microdilution | – | 72 h, 35 °C | – | 1.56 to 3.13 µg/mL
CCn1cc(C(=O)NCCNCCO)c(=O)c2cc(OCc3ccc(C(C)(C)C)cc3)c(Cl)cc21 | – | ATCC 208821 | – | ≥80% growth inhibition | < 0.25 µg/mL
CCCCCCCCCC1CC2CCC3CC(CCCCCCCCC)NC(=N1)N23 (stereo not drawn) | fungal growth | ATCC 90113 | – | – | 2.99 µM

Some of these lines once more:
SMILES | assay | test system | setting | how to read | MIC
C[C@@H](c1ccn(Cc2ccc(F)c(F)c2)n1)[C@](O)(Cn1cnnn1)c1ccc(F)cc1F | growth, broth microdilution | H99 | 72 h, 30 °C, ≥50% inhibition | – | 0.0625 µg/mL
